Experimental data of several laboratories.
Each numbered part is a random draw from the data of one study; scales do not carry over between parts. “And” joins repeats or separate records; there may be more than shown.
Chain of UniProt P10721 (whole entry, unmodified, looked up): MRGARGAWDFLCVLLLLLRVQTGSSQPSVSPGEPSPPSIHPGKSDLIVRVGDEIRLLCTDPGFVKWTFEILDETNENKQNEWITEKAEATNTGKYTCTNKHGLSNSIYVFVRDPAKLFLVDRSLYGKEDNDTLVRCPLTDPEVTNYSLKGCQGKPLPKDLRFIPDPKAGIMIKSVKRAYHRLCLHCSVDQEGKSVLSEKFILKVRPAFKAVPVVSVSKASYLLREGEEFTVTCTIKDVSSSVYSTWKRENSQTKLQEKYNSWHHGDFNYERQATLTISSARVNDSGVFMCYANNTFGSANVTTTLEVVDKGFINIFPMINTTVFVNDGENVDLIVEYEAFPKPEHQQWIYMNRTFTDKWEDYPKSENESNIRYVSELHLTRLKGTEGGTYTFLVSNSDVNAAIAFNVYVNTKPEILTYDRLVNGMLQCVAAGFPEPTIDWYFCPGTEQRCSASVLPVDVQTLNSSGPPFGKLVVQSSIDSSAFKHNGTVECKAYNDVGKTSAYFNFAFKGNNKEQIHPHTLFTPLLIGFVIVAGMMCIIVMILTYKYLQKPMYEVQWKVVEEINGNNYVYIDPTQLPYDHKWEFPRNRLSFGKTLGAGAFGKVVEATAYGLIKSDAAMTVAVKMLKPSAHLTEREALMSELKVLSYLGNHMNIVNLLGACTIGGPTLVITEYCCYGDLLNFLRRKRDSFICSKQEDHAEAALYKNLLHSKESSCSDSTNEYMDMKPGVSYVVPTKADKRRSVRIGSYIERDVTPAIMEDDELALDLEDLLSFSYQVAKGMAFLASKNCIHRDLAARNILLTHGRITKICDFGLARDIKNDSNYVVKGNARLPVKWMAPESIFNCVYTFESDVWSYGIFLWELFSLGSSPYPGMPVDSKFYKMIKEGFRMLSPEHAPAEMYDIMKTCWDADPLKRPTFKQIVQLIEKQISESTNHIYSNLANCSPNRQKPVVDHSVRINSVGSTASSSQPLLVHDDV
Chain of UniProt Q9NRH2 (whole entry, looked up): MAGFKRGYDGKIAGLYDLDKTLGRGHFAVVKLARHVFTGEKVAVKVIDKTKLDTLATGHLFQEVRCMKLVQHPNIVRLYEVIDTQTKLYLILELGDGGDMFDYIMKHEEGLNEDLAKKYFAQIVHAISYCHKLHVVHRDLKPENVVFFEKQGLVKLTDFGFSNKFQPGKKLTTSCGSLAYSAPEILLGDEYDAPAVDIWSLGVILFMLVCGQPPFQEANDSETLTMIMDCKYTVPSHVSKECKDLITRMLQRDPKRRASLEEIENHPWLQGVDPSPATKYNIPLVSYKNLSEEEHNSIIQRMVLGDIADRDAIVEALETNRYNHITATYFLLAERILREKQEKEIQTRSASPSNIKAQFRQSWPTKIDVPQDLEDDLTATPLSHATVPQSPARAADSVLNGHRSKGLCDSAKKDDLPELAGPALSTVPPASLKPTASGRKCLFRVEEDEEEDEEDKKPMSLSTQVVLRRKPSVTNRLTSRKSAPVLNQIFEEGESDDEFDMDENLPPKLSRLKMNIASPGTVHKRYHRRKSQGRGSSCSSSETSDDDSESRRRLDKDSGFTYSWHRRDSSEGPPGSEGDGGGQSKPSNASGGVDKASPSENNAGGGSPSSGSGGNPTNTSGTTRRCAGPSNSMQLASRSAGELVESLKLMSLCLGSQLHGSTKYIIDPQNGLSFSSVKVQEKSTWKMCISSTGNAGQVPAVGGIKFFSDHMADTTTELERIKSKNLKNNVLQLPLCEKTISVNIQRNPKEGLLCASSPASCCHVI
Chain of UniProt Q13470 (whole entry, looked up): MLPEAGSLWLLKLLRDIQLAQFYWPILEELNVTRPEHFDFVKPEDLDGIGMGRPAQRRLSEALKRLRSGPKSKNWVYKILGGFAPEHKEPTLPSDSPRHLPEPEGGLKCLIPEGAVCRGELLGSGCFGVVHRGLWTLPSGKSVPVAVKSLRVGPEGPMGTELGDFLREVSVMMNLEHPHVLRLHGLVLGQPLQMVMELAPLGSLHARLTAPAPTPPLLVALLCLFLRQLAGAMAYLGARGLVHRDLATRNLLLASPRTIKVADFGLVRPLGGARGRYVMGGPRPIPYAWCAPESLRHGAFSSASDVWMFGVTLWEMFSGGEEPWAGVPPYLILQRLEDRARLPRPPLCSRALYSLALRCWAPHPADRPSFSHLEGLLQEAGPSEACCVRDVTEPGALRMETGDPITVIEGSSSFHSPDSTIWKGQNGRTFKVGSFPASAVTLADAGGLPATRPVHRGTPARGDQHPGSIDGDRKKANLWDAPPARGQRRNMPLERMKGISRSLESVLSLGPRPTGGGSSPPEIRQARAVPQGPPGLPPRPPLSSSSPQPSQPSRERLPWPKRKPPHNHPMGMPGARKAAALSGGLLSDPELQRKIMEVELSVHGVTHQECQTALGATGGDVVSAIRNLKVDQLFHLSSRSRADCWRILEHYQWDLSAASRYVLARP
Chain of UniProt Q05655 (whole entry, looked up): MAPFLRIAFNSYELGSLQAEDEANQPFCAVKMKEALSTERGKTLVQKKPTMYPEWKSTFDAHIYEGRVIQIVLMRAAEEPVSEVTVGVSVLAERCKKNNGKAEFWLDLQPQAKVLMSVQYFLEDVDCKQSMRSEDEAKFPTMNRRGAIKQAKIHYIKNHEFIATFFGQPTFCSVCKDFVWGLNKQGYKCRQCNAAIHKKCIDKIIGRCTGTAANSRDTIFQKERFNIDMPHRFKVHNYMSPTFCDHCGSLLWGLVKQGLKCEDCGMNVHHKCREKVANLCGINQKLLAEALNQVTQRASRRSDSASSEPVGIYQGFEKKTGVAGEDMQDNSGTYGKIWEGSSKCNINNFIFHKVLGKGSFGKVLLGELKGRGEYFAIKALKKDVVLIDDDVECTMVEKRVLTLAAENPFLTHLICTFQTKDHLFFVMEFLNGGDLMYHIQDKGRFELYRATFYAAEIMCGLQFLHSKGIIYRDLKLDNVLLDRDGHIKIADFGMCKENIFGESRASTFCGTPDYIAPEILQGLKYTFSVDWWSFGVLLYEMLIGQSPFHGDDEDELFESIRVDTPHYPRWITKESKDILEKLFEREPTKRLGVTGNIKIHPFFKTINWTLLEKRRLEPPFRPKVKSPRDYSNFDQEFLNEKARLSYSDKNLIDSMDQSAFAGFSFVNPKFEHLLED
Chain of UniProt Q9HBH9 (whole entry, looked up): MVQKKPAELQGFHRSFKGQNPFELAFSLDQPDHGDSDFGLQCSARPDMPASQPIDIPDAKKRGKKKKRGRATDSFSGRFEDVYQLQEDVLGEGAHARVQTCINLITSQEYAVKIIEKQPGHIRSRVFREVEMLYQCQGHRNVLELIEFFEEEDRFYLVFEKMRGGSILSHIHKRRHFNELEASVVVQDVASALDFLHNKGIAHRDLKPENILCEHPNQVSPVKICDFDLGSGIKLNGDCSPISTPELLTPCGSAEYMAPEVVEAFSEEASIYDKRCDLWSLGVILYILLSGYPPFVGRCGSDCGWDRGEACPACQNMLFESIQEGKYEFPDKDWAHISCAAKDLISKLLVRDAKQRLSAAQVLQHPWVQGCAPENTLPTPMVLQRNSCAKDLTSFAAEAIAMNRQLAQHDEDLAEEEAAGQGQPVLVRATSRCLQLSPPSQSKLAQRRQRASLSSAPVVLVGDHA
Chain of UniProt Q9Y243 (whole entry, looked up): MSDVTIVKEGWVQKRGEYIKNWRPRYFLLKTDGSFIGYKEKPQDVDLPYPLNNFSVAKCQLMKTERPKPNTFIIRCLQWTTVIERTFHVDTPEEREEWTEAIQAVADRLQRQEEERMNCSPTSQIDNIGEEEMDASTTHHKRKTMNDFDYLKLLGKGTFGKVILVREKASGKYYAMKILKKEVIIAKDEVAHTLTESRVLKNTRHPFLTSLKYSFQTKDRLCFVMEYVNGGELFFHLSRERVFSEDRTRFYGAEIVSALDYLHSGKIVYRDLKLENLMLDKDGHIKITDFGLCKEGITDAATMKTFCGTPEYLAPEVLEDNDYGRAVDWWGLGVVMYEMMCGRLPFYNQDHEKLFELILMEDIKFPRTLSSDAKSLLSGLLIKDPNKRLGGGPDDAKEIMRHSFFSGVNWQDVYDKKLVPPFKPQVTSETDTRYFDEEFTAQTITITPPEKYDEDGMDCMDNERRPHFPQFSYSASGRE
Chain of UniProt Q9UBE8 (whole entry, looked up): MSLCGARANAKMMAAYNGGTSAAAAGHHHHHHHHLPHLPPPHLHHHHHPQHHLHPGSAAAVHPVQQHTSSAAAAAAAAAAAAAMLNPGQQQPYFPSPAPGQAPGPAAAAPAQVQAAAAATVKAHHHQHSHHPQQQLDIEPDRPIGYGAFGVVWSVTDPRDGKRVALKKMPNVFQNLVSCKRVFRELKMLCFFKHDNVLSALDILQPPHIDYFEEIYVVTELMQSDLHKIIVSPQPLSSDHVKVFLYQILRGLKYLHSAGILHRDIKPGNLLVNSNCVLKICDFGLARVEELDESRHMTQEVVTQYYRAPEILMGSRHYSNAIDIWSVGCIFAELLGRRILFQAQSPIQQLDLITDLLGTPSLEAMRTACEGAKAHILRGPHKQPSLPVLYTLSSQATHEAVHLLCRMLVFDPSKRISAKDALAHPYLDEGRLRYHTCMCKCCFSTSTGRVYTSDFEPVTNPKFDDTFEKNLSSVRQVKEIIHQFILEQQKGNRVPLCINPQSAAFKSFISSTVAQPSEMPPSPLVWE
Chain of UniProt O14757 (whole entry, looked up): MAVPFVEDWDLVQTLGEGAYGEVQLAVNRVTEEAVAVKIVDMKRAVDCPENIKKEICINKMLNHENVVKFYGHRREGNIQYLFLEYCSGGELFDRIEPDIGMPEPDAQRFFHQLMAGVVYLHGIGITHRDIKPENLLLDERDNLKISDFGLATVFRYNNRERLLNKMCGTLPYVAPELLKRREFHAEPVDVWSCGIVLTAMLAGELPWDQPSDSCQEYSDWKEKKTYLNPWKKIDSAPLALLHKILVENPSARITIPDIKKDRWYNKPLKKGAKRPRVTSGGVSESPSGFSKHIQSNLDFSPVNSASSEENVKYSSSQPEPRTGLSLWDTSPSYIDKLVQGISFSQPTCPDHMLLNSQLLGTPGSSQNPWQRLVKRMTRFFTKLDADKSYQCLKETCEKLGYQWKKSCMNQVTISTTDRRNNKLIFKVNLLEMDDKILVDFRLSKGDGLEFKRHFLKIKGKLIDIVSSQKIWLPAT

Block 1
Species: human
Medium: microsomes or S9
Tested at: 2 µM
Time: 0.5 h
SMILES	remaining compound
Cc1ccn(CCNc2ncnc3c2CCN(c2cnccn2)CC3)n1	2.05%
COc1c(C)cnc(Cn2cnc3oc(C)c(C)c3c2=O)c1C	31.2%
O=c1c(C(c2ccncc2)c2c(O)nc3n(c2=O)CCCS3)c(O)nc2n1CCCS2	86.1%
Cc1ccc(OCCOCCN2CC(C)OC(C)C2)c(Br)c1 (stereo not shown)	0.146%
CC(C)(C)CCNc1ccc(CNS(C)(=O)=O)cc1	37.3%
Clc1nc(N2CCN(c3ccccn3)CC2)c2nc[nH]c2n1	66.9%
Cc1cc(C)n(CCCN(C)Cc2cn(C(C)C)c3cc(F)ccc23)n1	4.7%
O=C(c1ccccc1)c1cccc2c1N(C(=O)c1ccccc1)CC21CCCCC1	0.147%
Cc1cc(=O)n(CCNC(=O)c2nc3nc(C)cc(C)n3n2)cn1	> 99%
CCOC(=O)c1cccc(NC(=O)CC2C(=O)N(c3ccc(Cl)cc3)C(=O)N2C2CCCC2)c1 (stereo not shown)	4.33%
CCC(CC)C(=O)Nc1c2c(nc3c1CCC3)CCCC2	20.1%
CCC(C)NC(=O)c1ccc2c(=O)n(C(C)C)c3nn(CC(=O)Nc4ccc(C(C)C)cc4)c(=O)n3c2c1 (stereo not shown)	61.3%

Block 2
Cell line: mouse MPNST tumor cells
Technique: high-content nuclear imaging
Item: cell number
Tested at: 10 µM
Time: 12 h
Setting: mean of 2 replicates
Relative to: plate mean
Direction: higher = more cells
SMILES	nuclei count
Cc1nnc(NS(=O)(=O)c2ccc(N)cc2)s1	0.772 z-score
CC(C)(C)c1ccc(C(O)CCCN2CCC(C(O)(c3ccccc3)c3ccccc3)CC2)cc1 (stereo not shown)	-7.38 z-score
O=C(Nc1ncc([N+](=O)[O-])s1)c1ccccc1O	-0.818 z-score
CCCCCCCC/C=C\CCCCCCCC(=O)NCc1ccc(O)c(OC)c1	2.17 z-score
O=S(=O)(N[C@H](CO)C(C(F)(F)F)C(F)(F)F)c1ccc(Cl)s1	-0.674 z-score
Nc1nc(CC(=O)Nc2ccc(CCNC[C@H](O)c3ccccc3)cc2)cs1	1.7 z-score
Nc1nc(OCC2CCCCC2)c2[nH]cnc2n1	1.85 z-score
CCCCC1C(=O)N(c2ccccc2)N(c2ccc(O)cc2)C1=O (stereo not shown)	-2.49 z-score and -4.16 z-score
CC(=O)OCC(=O)[C@@]12OC3(CCCC3)O[C@@H]1C[C@H]1[C@@H]3CCC4=CC(=O)C=C[C@]4(C)[C@@]3(F)[C@@H](O)C[C@@]12C	1.67 z-score
Cc1cc(C)c(S(=O)(=O)Nc2cccc(C(F)(F)F)c2)c(C)c1	-0.339 z-score
FC(F)(F)c1ccccc1-c1cc(C(F)(F)F)c2nc(C3=NOC4(CCCCC4)C3)[nH]c2c1	2.4 z-score
CCN(CC)CCN[C@@H](C(=O)OCCC(C)C)c1ccccc1	1.12 z-score
CC1CC(OC(=O)C(O)c2ccccc2)CC(C)(C)C1 (stereo not shown)	0.778 z-score
CCOc1ccccc1C(N)=O	-0.102 z-score
O=c1[nH]c(=O)n([C@H]2C[C@H](O)[C@@H](CO)O2)cc1I	4.94 z-score
CCN(CC)c1ccc(C=NNC(=O)c2ccc(O)cc2)cc1	0.577 z-score
Nc1nc(N)c2nc(-c3ccccc3)c(N)nc2n1	0.486 z-score and -0.363 z-score
Cc1nc2n(c(=O)c1CCN1CCC(c3noc4cc(F)ccc34)CC1)CCCC2O (stereo not shown)	3.89 z-score

Block 3
SMILES: Nc1cnc(N2CCc3cc(S(=O)(=O)Nc4c(F)cc(Cl)cc4F)cc(N4CCCC4=O)c32)nc1
Observed: cell-free assay
Technique: competition with immobilised ligand
Tested at: 1 µM
target	remaining binding
Serine/threonine-protein kinase 38 (STK38, Homo sapiens, UniProt Q15208)	99%
Fibroblast growth factor receptor 2 (FGFR2, Homo sapiens, UniProt P21802)	100%
TRAF2 and NCK-interacting protein kinase (TNIK, Homo sapiens, UniProt Q9UKE5)	100%
Non-receptor tyrosine-protein kinase TNK1 (TNK1, Homo sapiens, UniProt Q13470)	100%
Serine/threonine-protein kinase NLK (NLK, Homo sapiens, UniProt Q9UBE8)	100%
Myosin light chain kinase, smooth muscle (MYLK, Homo sapiens, UniProt Q15746)	91%
Mast/stem cell growth factor receptor Kit (KIT, Homo sapiens, UniProt P10721, L576P)	83%
Rho-associated protein kinase 1 (ROCK1, Homo sapiens, UniProt Q13464)	96%
Mitogen-activated protein kinase kinase kinase 11 (MAP3K11, Homo sapiens, UniProt Q16584)	100%
Serine/threonine-protein kinase Sgk3 (SGK3, Homo sapiens, UniProt Q96BR1)	100%
SNF-related serine/threonine-protein kinase (SNRK, Homo sapiens, UniProt Q9NRH2)	100%
Protein kinase C delta type (PRKCD, Homo sapiens, UniProt Q05655)	86%
Dual specificity protein kinase CLK1 (CLK1, Homo sapiens, UniProt P49759)	85%

Block 4
Compound: O=C1NC(=O)c2c1c1c3ccccc3[nH]c1c1[nH]c3cc(Br)ccc3c21
Observed: enzyme activity
Action: inhibitor
Tested at: 0.5 µM
Relative to: control
target	remaining activity [%]
Interleukin-1 receptor-associated kinase 4 (IRAK4, Homo sapiens, UniProt Q9NWZ3)	76.2
Mast/stem cell growth factor receptor Kit (KIT, Homo sapiens, UniProt P10721)	128
Mitogen-activated protein kinase 12 (MAPK12, Homo sapiens, UniProt P53778)	100
Tyrosine-protein kinase BTK (BTK, Homo sapiens, UniProt Q06187)	74.8
Protein kinase C iota type (PRKCI, Homo sapiens, UniProt P41743)	96.2
Mitogen-activated protein kinase kinase kinase 10 (MAP3K10, Homo sapiens, UniProt Q02779)	70.4
Casein kinase I isoform alpha (CSNK1A1, Homo sapiens, UniProt P48729)	95.4
RAC-gamma serine/threonine-protein kinase (AKT3, Homo sapiens, UniProt Q9Y243)	91.1
Serine/threonine-protein kinase Chk1 (CHEK1, Homo sapiens, UniProt O14757)	79.7
Serine/threonine-protein kinase WNK2 (WNK2, Homo sapiens, UniProt Q9Y3S1)	92.1
MAP kinase-interacting serine/threonine-protein kinase 2 (MKNK2, Homo sapiens, UniProt Q9HBH9)	44
Mitogen-activated protein kinase kinase kinase kinase 2 (MAP4K2, Homo sapiens, UniProt Q12851)	74.1

Repeated from above (block 1):
SMILES	remaining compound
O=C(c1ccccc1)c1cccc2c1N(C(=O)c1ccccc1)CC21CCCCC1	0.147%
Cc1ccc(OCCOCCN2CC(C)OC(C)C2)c(Br)c1 (stereo not shown)	0.146%
CC(C)(C)CCNc1ccc(CNS(C)(=O)=O)cc1	37.3%
O=c1c(C(c2ccncc2)c2c(O)nc3n(c2=O)CCCS3)c(O)nc2n1CCCS2	86.1%
CCOC(=O)c1cccc(NC(=O)CC2C(=O)N(c3ccc(Cl)cc3)C(=O)N2C2CCCC2)c1 (stereo not shown)	4.33%
CCC(CC)C(=O)Nc1c2c(nc3c1CCC3)CCCC2	20.1%
CCC(C)NC(=O)c1ccc2c(=O)n(C(C)C)c3nn(CC(=O)Nc4ccc(C(C)C)cc4)c(=O)n3c2c1 (stereo not shown)	61.3%
